Published values from different studies.
Each line is one published result; not all experiments were run side by side. “And” joins repeats or separate records; there may be more than shown.

| Substance | target or system | test | system | conditions | scale | endpoint | value |
| --- | --- | --- | --- | --- | --- | --- | --- |
| CCOP(=O)(OCC)Oc1ccc([N+](=O)[O-])cc1 |  | SPME sorption isotherm | PBS |  |  | log Freundlich coefficient | 2.44 |
| CC[C@H](C)[C@H]1C(=O)N2CCC[C@H]2C(=O)O[C@H](C(C)(C)C)C[C@@H](C)C[C@H](O)[C@H](C)C2=N[C@@H](CCC(=O)N[C@@H](Cc3ccc(OC)cc3)C(=O)N(C)[C@@H](C)C(=O)N1C)CS2 | RAW264.7 | IL-6 release, inhibitor |  | LPS-stimulated |  | IC50 | ~0.0007 µM |
| O=c1ccn([C@@H]2O[C@](F)(CO)[C@@H](O)[C@H]2O)c(=O)[nH]1 | Mammarenavirus lassaense | viral replication | HeLa, clade III Nigeria-383 |  |  | EC50 | 7.97 µM |
| CC(C)CC1(C)NC(=O)N(Cc2cc([N+](=O)[O-])cc3c2OCOC3)C1=O (centres unmarked) | MERS-CoV spike VSV pseudovirus | pseudovirus entry |  | 10 µM |  | inhibition | 40% |
| CCOP(=S)(OCC)Oc1nc(Cl)c(Cl)cc1Cl | ReNcell VM | YO-PRO-1 staining |  | 24 h |  | lowest concentration increasing apoptotic cells | ≤ 0.78 µM |
| CC(C)[C@H]1C(=O)O[C@H](C(C)C)C(=O)N(C)[C@@H](C(C)C)C(=O)O[C@H](C(C)C)C(=O)N(C)[C@@H](C(C)C)C(=O)O[C@H](C(C)C)C(=O)N1C |  | LC-MS/MS | CB-17 scid/scid mice, kidney | intraperitoneal, 5 mg/kg, 24 h after last dose, daily dosing |  | tissue concentration | 0.1 µg/kg |
| GGUGUAAAUUGUCCUUUUUGUAACUUUAAUUCCUUGUACUUAAUAUCAUUUAUUGAAUUUACUGCUCUAGAUAAAGUACCUACUUCUCUUAAUAUAUUACUAUCUAAAGUCUUAAUCAAACACACCUCCACUGAAACUACCAUGGCUAAAGUCAAAUAGUUUCUGUUUUAUAGAAUUUCACAUAAUCAAUAUUUUCAUUUUUAGUUGAAAGUUCAACUUUUUUAAAUUUUACCAU (structured RNA) | CD25890 1-293 E254A/E258A (Clostridioides difficile, UniProt Q182S9) | EMSA |  |  |  | binding | binds |
| COc1cc2ncnc(Nc3cccc(Cl)c3)c2cc1OC | Monkeypox virus | viral infection | replication-deficient | 0.015 µM | relative to: untreated | infection | 98.5% and 102% and 104% |
